Assay results of several laboratories.
Each numbered part is a random draw from the data of one study; scales do not carry over between parts. Substitutions count along the parent as printed.

Study 1 — technique: RNA Bind-n-Seq; form: RNA; sample: in vitro; tested at: 200 nM; setting: whole 134-nt RNA, ends assumed; with: 150 mM LiCl; reference: input library; reading: higher = stronger binding; all molecules: 7-deaza-guanosine replaces G
Target: Fragile X messenger ribonucleoprotein 1, C-terminal low-complexity region (Fmr1, Mus musculus, UniProt P35922)
| Strand | log2 enrichment |
| --- | --- |
| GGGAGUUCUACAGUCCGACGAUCAGUCCUGUGCUACACAUCGUAUGUACCGAAUCGGGGUUUUGGGUUUUGGGGUUUUGGAAAGUAUUAUGUUACGCCGUUCGGAUCUGCACUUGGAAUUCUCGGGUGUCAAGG | -1.44 |
| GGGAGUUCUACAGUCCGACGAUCCAAGUCCUGUGCUACACAUCGUAUGUACCGAAUCGGGGAGGGGAGGGGAAAGGGGAAAGUAUUAUGUUACGCCGUUCGGAUCUGCACUUCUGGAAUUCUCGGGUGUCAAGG | 0.432 |
| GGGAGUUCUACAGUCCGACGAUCGCAGGAAGUAAAAACAAAUGGACAUGCUUCGGAUAGUGGCAGGGGUGGGGGUUGCUAAGGAAAGGGUGGGAUGGGAGUGGGUAAAGAGUUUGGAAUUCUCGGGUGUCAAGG | 1.71 |
| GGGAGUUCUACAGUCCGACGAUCGUCCUGUGCUACACAUCGUAUGUACCGAAUCGGUUUUUGGGUUUUUGGGUUUUUGGGGAAAGUAUUAUGUUACGCCGUUCGGAUCUGCACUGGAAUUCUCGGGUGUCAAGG | -0.774 |
| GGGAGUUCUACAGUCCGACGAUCCUCAAGUCCUGUGCUACACAUCGUAUGUACCGAAUCGGGUGGGAGGGAAAGGGAAAGUAUUAUGUUACGCCGUUCGGAUCUGCACUUCCAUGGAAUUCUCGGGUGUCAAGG | 0.0744 |
| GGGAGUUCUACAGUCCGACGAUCUCAAGUCCUGUGCUACACAUCGUAUGUACCGAAUCGGGAAAGGGAAAGGAAAGGAAAGUAUUAUGUUACGCCGUUCGGAUCUGCACUUCCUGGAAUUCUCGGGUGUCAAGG | -1.3 |
| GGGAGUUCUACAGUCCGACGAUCCUGUGCUACACAUCGUAUGUACCGAAUCGGGAAAAAAAGGGGAAAAAAAGGAAAAAAAGGGGAAAGUAUUAUGUUACGCCGUUCGGAUCUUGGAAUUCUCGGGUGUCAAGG | 0.316 |
| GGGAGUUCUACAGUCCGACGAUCGUCCUGUGCUACACAUCGUAUGUACCGAAUCAAACCCCCCCAAACCCCCAAAUUUAAAAAAGUAUUAUGUUACGCCGUUCGGAUCUGCACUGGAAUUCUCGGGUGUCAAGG | 1.2 |

Study 2 — technique: protein-binding microarray; form: double-stranded DNA, one strand shown; sample: in vitro; tested at: 250 nM; setting: 60-bp whole probe; with: salmon DNA 0.4 mg/ml; reference: random background probes; reading: higher = stronger binding; constant ends, left off below: GCCTAGCAC … GTCTTGATTCGCTTGACGCTGCTG
Target: Interferon regulatory factor 7, full length, phosphomimetic (IRF7, Homo sapiens, UniProt Q92985, residues 1-503, S101K/S471D/S472D/S475D/S476D/S477D/S483D/S484D/S487D)
UniProt Q92985, sequence (whole entry, unmodified, looked up): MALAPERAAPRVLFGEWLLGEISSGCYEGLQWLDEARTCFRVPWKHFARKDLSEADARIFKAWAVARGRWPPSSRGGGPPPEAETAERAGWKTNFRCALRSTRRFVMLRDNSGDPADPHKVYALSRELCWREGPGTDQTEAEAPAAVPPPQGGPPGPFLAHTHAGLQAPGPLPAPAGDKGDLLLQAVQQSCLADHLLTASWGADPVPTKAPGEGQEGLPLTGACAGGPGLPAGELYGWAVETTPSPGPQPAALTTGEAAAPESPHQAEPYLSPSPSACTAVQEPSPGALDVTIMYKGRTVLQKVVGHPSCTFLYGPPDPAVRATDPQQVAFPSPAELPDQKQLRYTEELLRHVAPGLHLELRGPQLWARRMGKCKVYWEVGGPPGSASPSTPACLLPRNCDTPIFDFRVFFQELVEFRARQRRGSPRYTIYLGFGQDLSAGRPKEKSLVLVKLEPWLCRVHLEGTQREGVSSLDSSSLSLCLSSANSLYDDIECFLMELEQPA
| Strand | log fluorescence |
| --- | --- |
| GACGATTTCGGTTTTCGAGACGTGCTA | 4.57 z-score |
| GACGGTTTCGACACTGGGGATGTGCTA | 3.55 z-score |
| GACGGCCTGGGACTGGGGACGTGCTAG | -0.649 z-score |
| GACCGTTTCCTTTCCCTGACGTGCTAG | 3.23 z-score |
| TTAAGAATGTTTTTCATTGTGTGCTAG | 0.0224 z-score |
| TAAGGTATCGACTTTCGGTTAGTGCTA | 3.21 z-score |
| TTAAGTTCCGGTTTCGGTTAGTGCTAG | 11.6 z-score |
| TTAGAGATCGGGTTTCGATTAGTGCTA | 6.99 z-score |

Study 3 — technique: competition protein-binding microarray; form: double-stranded DNA, one strand shown; sample: in vitro; tested at: 2 µM; with: Cbf1 competitor, 0.05 µM; reading: higher = stronger binding
Target: Phosphate system positive regulatory protein PHO4, full length, GST-tagged (PHO4, Saccharomyces cerevisiae, UniProt P07270, residues 1-312)
Setting: whole 60-bp probe, lowest competitor level
Residues (chain): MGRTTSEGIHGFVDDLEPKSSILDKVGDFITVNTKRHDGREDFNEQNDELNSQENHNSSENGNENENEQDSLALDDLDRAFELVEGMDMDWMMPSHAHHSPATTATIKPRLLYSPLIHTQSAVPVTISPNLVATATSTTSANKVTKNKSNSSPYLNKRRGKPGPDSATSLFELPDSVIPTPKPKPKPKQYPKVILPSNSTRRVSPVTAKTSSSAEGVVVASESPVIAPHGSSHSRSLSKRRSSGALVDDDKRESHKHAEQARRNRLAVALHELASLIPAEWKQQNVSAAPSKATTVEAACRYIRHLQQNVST
| Strand | fluorescence intensity [a.u.] |
| --- | --- |
| GATACACTTCCAGGGAACGTGATGGAAATGATCTTCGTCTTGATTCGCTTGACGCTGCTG | 12200 |
| CCAAGCCTGTAAATCGGTGTGACGGACACCAGAATAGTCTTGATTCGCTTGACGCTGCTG | 3100 |
| CGGGGTTAAGTTTGTCCCGTGGGTGGCTTGCAGCAGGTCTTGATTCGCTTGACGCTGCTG | 8570 |
| TTGAGAGTTTCCCATCACGTGGTCGCCTTGCATCGCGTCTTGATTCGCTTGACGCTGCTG | 13600 |
| ATATCCCATCAACTACACGTGCCAGACCAGTTAAAGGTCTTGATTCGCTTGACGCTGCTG | 18100 |
| TGCCAAAATCTGCCTCAGGTGACAAGCCATTTTTCCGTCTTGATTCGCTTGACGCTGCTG | 3140 |
| ACATACCATATCCTGAACGTGAAGATCCCAGATGGAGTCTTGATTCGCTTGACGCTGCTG | 8190 |
| GTCCGGTTTCAGGAACACGTGTGGAAAATACAGGGCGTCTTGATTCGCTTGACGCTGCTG | 17000 |

Mixed results
Parent: viral docking peptide; TSVRRALFTGGSD; partner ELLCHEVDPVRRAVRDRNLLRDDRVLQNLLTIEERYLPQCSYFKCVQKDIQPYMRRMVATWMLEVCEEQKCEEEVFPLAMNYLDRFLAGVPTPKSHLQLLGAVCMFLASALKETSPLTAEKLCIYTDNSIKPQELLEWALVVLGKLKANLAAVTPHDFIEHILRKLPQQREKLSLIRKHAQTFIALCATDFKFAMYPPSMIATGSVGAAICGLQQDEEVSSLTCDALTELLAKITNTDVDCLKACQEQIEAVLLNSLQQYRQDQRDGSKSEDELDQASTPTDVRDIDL
| Change | target | test | system | setting | how to read | measurement | result |
| --- | --- | --- | --- | --- | --- | --- | --- |
| TSVRRALFPGGSD [T9P] | CCND2, cyclin fold, Cln2 fusion (human) | yeast growth competition, sequencing | yeast | weak parent motif | reference: not given, higher = stronger binding | normalised enrichment score | 0.0527 |

A few entries again (study 2):
| Strand | log fluorescence |
| --- | --- |
| TAAGGTATCGACTTTCGGTTAGTGCTA | 3.21 z-score |
| TTAAGTTCCGGTTTCGGTTAGTGCTAG | 11.6 z-score |
| TTAGAGATCGGGTTTCGATTAGTGCTA | 6.99 z-score |
